Measurements collected from several papers.
A part holds a random share of what one study measured.

Study 1
Sequence: SDSTVTKLDFDLEP
Technique: competitive growth deep sequencing
Form: peptide
Tested at: concentration not given
Direction: direction not given
Endpoint: growth enrichment score
yeast with cyclin F-Cln2 chimera; cell growth, binder; peptide tiling library: -0.0183
Saccharomyces cerevisiae; binding; cyclin D3-Cln2 fusion strain; tiling library, Cln2 subtracted: 0.306
Saccharomyces cerevisiae; binding; cyclin E1-Cln2 fusion strain; tiling library, Cln2 subtracted: 0.276

Study 2
Target: Fragile X messenger ribonucleoprotein 1, C-terminal low-complexity region (Fmr1, Mus musculus, UniProt P35922)
Technique: RNA Bind-n-Seq
Form: RNA
Medium: in vitro
Tested at: 200 nM
Notes: whole 134-nt RNA, ends assumed
Together with: 150 mM LiCl
Baseline: input library
Direction: higher = stronger binding
Endpoint: log2 enrichment
Library: 7-deaza-guanosine replaces G
Constant ends, left off below: GGGAGUUCUACAGUCCGACGAUC … UGGAAUUCUCGGGUGUCAAGG
CUGUGCUACACAUCGUAUGUACCGAAUCGGGGUUUGGGGAAAAAAAGGGGAAAAAAAGGGGAAAGUAUUAUGUUACGCCGUUCGGAUCUG: 1.05
AAGUCCUGUGCUACACAUCGUAUGUACCGAAUCGGGGAGGGGAAAGGGGUUUGGGGAAAGUAUUAUGUUACGCCGUUCGGAUCUGCACUU: -1.28
UGGCCCUGGUGGCAUGCGGGGAGGAAGAGGUGGCCUCAUGGAUCGUGGUGGUCCCGGUGGAAUGUUCAGAGGUGGCCGUCGUGGAGACAG: -1.15
AGUCCUGUGCUACACAUCGUAUGUACCGAAUCGGUUUGGAAAAAAAGGUUUUUUUGGAAAGUAUUAUGUUACGCCGUUCGGAUCUGCACU: -3.09
AAGUCCUGUGCUACACAUCGUAUGUACCGAAUCGGGUUUGGGAGGGUUUUUUUGGGAAAGUAUUAUGUUACGCCGUUCGGAUCUGCACUU: -0.762
UAACUUUAGAGGAGGAUCUGAUGGAUAUGGCAGUGGACGUGGAUUUGGGGAUGGCUAUAAUGGAUAUGGAGGAGGACCUGGAGGUGGCAA: 0.888
ACCAAACAGGUGGGCAUCUUUGGGAAGUGGGGCAAGGGGGGGAUAGGGAGGGGGGUAACACUUUGGGAACAGGUGGUCCCAGGUCGUUUC: 1.36
UCCUGUGCUACACAUCGUAUGUACCGAAUCGGGUUUGGGUUUUUUUGGGAAAAAAAGGGAAAGUAUUAUGUUACGCCGUUCGGAUCUGCA: -0.959
UAUGAGGAUGAGUUGGUGCCCCUUUUUGAGAAGGCCGGACCCAUUUGGGAUCUACGUCUUAUGAUGGAUCCACUGUCCGGUCAGAAUAGA: 0.966
UCAAGUCCUGUGCUACACAUCGUAUGUACCGAAUCGGAAAAAAAGGAGGUUUGGAAAGUAUUAUGUUACGCCGUUCGGAUCUGCACUUCC: -1.87
UCAAGGGUUAUACACGGAAAGCCGCUGCGCUGGAAGCGAUGAAGGACUACACCAAAGCCAUGGAUGUGUACCAGAAGGCGCUAGACCUGG: -0.461

Study 3
Target: RNA binding protein fox-1 homolog 2, RRM domain, GST-SBP tag (RBFOX2, Homo sapiens, UniProt O43251-10, residues 100-194)
Technique: RNA Bind-n-Seq
Form: RNA
Medium: in vitro
Tested at: 365 nM
Notes: natural RNA segment, single round, ends assumed
Baseline: no-protein control
Direction: higher = stronger binding
Endpoint: RBNS enrichment (R)
Constant ends, left off below: GGGAGUUCUACAGUCCGACGAUC … UGGAAUUCUCGGGUGCCAA
Target sequence (chain): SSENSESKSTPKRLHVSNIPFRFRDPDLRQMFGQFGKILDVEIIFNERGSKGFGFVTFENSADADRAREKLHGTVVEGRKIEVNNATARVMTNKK
AUAUAGAUGACUUAAUUACAUUCUUGAUUGGUCAUGUGCAGUCUUCUGAAGAUGAGCUAACAAUGCCUUGUCUAGGACUAUUGGCAAAUCUUUGUCGGCACAAUCUUUCU: 0.243
GCCUGAUUAGUCACAUAUCAUUGGAGGUCAAACGCCAUUUCCAGUGGCCUCUCUGUGUGCCCACAUGAUGCAAAGGGGUCAUGUACUAUGCCCUGGACAAAGAAGUAUGU: 0.469
GUUUAACAUAUACAAAUUCGUGAAUUCUUGUUCAUUUUGCAUUCCUGCAGUCAGUGCUAAUCCGUCGUUCUUAAUCAGGAGUUCUGCCAGGUUUAAGGUCACCUGCACUC: 0.363
GACCCCAGCUGUUGUCUGCCCAGUAGAAGUGGGUGGGGGUAGGAGGGGAUAGGGUGUCCUUGGGAACAAUGGAUCCCAGCUUAGCCCCAAAGACCAACCAAAGAGCCAGC: 0.597
UGGUCUUCUUGGGCCAAGCAAUUUCUUUAAAGGAAAAGUUAGCAUUAUGUUUGUGGGGUGCCAGGGCCGCCACCACGAGAAACCGUGUGAUUUUUAUUUUAAUAUUAUUU: 1.05
CGGGGCGGGCAGCUCCUUGUCUCUCAGCUUUGACUGACUUGUCCGCAUUGGGGAUUUUUGUUCUCAGCUCCCAGGCCGCACUGAACACAGUGUUGCUGCCUUCAGUUUGG: 0.318
UGGGCUCUGUUUAGGAGGGCAGUGAGACCACCCAGCCAAAUUGCUUCUCAACCCUAGACAAAGCCUUUGGCCAAGAGGGAGGUGCUGUUAGUUGGGCAGCCCUUCUGGGU: 0.406
CAUUUUAAUUUGUUCUUGAUUUGUAUGAUGUUGGGGGCGUUAGCAUUACGUGUUGAAUAUUUUGAGUAAGAAGAAAAGAAUCCAUCUUCAGAAUAUAGGGUUGUUCUUUG: 1.64
AUCACUGGCUCCAGAAUUGUCUUUGCCCUUCUCACCUGUUCCUGGAAACUGGGGCAGCCAGUGCUUAUCUGCACACUCCAGAUGAGAAGGCAUACAGGAGGGGGCCCACU: 0.278
ACAUAUUCUUGGGUACUCUAUUUAUGUAUCUUUCAUGCCUUGAAAAUCUGAAGGUUAAUCCAAACUCACAUGUUUUAGCAUAUUUGAGAAAAAAAAACUACCUUCAAUAU: 0.602
UCCACAAGGCAGAAGGGAUCACCGGUGGCAGUCACUCGCGUUUUGUGGAGUGUGGCAGGUGGACUUGCUGUGUCUGAUGGAAGGUCAGGGUCAGGAUCUACUGCCUCUGC: 0.237
ACAGAAGCAAGCAAAUAAAGUCAGGAAGAAAUAUAUAUAUGAGAUAAUAUAGAUUGUAUUGAAAUCUUUCUGCCUGCCAGCGAGGUUUUUUUUUUCUUUUCCCCUCUUGU: 0.601

Study 4
Target: Histone acetyltransferase KAT6A, winged helix 2, GST fusion (KAT6A, Homo sapiens, UniProt Q92794, residues 85-181)
Technique: protein binding microarray
Form: double-stranded DNA, one strand shown
Medium: in vitro
Tested at: not given
Notes: 8-mer, flanks averaged, mean of 2 arrays, mostly near background
Baseline: not given
Direction: higher = stronger binding
Endpoint: E-score
Construct (chain): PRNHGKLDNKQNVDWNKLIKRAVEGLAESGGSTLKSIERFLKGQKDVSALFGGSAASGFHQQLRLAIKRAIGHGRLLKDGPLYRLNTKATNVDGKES
AAGTACAA: -0.115
ACGTTCAA: -0.129
CACTAAGA: 0.0273
GTGTCGGA: -0.00779
ACGACCCT: 0.0363
CAAGTGGC: -0.0491
ATCTAGTG: -0.104
CCAGAGCG: -0.00196
CAGAATCC: -0.00213
ACTGATAT: 0.0182
AGACGGAT: -0.0103
CCGGCCCA: 0.0454
CGATATGC: -0.0198
GCTGTCAA: 0.145
AGGTTTAG: -0.0646
ACAGCCTA: 0.0481
CGGAATTA: -0.00968
AGTGCGTA: -0.148
GAGTCGGC: 0.176
ATTAGCGG: -0.0185
ACAAGATG: -0.119
CGTAAGCA: -0.0566
GTGGTTGA: -0.119
ACTGCGCG: 0.0432
CTGTCAGA: 0.00494

Study 5
Target: PABPC1L2, full length, GST fusion (mouse, UniProt A0ABA7IW68)
Technique: RNAcompete
Form: RNA
Medium: in vitro
Tested at: 20 nM
Notes: 7-mer, probes averaged, single round
Baseline: mean of 7-mers
Direction: higher = stronger binding
Endpoint: 7-mer Z-score
Target sequence (chain): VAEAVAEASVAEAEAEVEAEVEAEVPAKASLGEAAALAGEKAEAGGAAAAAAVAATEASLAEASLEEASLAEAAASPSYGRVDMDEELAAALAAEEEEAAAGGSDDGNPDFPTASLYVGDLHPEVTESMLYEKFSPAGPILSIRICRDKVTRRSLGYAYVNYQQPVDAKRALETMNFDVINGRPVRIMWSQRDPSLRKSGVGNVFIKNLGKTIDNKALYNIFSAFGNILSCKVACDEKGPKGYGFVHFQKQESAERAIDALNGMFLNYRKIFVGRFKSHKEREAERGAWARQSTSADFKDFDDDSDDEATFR
ACUCACU: -0.248
UUUCCCU: -0.423
AUAAAAC: 3.74
AUAGAAA: 2.01
CGAUCGC: -0.242
AGAUUUU: -0.394
UGUAGUG: -0.13
UCCCAUA: -0.246
CCCAUAA: 0.0932
CGAAGCC: -0.267
ACUGCCA: -0.164
AAGACCG: 0.117
CUGGUAA: 0.0243
CUUAAUU: -0.215
CUGUAGG: -0.132
UUCGAGU: -0.431
UACGCUU: -0.311
CCUGAGA: -0.0772
GGUGCCC: -0.144
CAAGAAG: 0.0732
GCCUUCU: -0.45
GAUCCUC: -0.356
GCAGAAC: 0.108
AACGCAG: 0.158
ACUGUCC: -0.233

Repeated from above (study 4):
AGACGGAT: -0.0103
CCGGCCCA: 0.0454
CGATATGC: -0.0198
GCTGTCAA: 0.145
AGGTTTAG: -0.0646
ACAGCCTA: 0.0481
CGGAATTA: -0.00968
AGTGCGTA: -0.148
